Measured values collected from several papers.
Every numbered part comes from another study and shows a few of its results, in no order. Several values in a cell are separate wells, animals, samples, runs or records.
UniProt Q16853, sequence (whole entry, looked up): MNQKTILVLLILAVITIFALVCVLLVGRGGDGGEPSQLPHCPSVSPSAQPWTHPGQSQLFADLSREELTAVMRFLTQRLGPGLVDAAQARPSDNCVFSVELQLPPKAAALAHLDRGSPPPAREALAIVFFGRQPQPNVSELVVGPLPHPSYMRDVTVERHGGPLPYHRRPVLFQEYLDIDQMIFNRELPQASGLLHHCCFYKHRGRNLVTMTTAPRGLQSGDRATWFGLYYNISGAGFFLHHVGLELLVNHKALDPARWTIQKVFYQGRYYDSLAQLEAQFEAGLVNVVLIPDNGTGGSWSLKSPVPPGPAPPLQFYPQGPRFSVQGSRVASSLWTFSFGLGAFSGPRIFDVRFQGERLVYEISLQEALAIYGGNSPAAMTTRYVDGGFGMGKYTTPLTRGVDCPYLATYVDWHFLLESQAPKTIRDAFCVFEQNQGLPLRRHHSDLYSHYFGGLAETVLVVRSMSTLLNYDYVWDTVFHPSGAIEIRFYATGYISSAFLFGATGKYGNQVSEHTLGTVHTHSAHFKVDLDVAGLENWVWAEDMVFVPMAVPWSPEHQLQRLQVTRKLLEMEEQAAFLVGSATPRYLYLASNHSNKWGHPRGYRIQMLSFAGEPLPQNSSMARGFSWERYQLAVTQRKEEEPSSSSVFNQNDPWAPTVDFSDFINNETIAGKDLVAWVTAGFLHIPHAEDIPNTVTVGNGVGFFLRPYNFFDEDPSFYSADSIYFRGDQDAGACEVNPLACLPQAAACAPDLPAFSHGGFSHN
UniProt P05164, sequence (whole entry, looked up): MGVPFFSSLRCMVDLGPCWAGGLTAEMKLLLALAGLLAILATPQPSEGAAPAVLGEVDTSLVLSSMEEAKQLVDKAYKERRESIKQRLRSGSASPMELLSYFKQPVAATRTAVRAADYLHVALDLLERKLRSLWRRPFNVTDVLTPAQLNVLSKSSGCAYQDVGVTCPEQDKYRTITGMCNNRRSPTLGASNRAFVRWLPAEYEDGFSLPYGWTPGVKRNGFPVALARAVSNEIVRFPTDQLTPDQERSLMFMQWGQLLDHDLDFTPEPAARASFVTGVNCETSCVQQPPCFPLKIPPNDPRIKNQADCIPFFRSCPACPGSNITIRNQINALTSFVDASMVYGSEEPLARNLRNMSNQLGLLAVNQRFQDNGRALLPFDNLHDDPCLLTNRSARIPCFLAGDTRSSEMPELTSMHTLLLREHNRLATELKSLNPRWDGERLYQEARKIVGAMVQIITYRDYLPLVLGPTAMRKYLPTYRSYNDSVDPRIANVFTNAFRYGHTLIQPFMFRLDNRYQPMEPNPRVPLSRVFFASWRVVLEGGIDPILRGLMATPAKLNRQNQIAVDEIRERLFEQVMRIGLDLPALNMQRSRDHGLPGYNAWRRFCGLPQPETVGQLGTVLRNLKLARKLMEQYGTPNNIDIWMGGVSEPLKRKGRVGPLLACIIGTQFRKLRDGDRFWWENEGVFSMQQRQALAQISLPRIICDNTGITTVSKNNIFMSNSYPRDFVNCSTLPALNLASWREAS
UniProt P28482, sequence (whole entry, looked up): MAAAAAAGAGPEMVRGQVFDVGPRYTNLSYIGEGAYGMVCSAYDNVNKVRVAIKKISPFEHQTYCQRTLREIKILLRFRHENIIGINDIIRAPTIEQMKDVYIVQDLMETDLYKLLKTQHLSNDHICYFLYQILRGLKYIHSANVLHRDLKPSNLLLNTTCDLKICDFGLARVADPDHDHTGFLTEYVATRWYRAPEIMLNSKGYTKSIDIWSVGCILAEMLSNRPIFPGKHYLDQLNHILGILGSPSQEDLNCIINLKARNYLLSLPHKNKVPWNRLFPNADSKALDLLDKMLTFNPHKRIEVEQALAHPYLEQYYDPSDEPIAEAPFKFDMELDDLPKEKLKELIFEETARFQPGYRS
UniProt Q96BR1, sequence (whole entry, looked up): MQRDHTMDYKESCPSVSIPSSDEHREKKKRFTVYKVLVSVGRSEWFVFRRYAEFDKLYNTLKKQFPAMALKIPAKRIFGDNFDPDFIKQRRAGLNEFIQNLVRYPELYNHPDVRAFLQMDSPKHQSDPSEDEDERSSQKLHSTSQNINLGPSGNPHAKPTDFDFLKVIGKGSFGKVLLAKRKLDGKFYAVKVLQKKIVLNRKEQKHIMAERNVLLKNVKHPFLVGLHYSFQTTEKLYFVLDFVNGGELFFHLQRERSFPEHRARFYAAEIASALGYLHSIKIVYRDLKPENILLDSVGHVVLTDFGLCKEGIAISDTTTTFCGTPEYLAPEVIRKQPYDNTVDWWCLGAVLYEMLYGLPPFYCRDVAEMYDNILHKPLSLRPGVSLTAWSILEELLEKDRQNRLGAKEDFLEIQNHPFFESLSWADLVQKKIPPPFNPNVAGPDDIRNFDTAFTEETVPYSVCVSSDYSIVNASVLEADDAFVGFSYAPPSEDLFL
UniProt Q9NQU5, sequence (whole entry, looked up): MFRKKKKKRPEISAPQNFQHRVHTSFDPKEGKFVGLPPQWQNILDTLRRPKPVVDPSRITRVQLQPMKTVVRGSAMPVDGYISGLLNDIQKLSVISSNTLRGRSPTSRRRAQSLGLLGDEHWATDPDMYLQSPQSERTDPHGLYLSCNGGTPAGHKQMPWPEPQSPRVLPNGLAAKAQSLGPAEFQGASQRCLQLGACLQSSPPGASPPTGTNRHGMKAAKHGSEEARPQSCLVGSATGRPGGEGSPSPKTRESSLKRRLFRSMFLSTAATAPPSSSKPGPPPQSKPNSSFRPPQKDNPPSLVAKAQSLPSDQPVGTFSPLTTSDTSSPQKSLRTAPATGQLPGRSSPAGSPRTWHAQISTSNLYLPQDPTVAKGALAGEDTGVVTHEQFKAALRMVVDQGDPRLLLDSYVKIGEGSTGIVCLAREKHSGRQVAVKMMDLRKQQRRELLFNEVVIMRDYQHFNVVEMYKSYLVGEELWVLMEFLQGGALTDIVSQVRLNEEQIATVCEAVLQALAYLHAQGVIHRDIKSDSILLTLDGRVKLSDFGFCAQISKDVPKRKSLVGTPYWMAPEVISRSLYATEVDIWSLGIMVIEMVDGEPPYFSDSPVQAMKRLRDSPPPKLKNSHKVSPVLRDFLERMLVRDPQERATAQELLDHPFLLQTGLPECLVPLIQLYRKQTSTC
UniProt Q9NR20, sequence (whole entry, looked up): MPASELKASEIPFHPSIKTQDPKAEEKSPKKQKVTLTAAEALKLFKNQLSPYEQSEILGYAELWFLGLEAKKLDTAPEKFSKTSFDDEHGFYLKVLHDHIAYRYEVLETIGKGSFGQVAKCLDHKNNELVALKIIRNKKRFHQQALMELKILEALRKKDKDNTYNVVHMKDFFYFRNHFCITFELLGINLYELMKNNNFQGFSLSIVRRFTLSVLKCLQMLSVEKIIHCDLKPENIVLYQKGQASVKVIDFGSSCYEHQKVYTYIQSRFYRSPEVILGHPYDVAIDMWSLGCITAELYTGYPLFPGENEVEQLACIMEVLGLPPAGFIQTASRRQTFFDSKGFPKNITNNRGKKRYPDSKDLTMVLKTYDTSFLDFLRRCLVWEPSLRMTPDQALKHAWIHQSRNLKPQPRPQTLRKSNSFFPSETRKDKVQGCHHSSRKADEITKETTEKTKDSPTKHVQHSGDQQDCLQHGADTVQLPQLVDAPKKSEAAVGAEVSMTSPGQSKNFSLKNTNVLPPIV

Series 1 — observed: thermal unfolding; method: differential scanning fluorimetry; tested at: 5.5 µM; reading: higher = more unfolded
Compound: C[C@@H]1CN(c2ccc(-c3cc(C(=O)NCCOCCOCCOCCOCCOCCOCCNC(=O)/C=C/c4[nH]cc(C(=O)N[C@@H](CC(N)=O)c5ccc(F)c(Cl)c5)c4-c4ccc(Cl)cc4F)ccc3F)cc2NC(=O)c2ccc(F)cc2C(F)(F)F)C[C@H](C)N1C
DCAF1: DDB1- and CUL4-associated factor 1 (DCAF1, Homo sapiens, UniProt Q9Y4B6)
UniProt Q9Y4B6, sequence (whole entry, looked up): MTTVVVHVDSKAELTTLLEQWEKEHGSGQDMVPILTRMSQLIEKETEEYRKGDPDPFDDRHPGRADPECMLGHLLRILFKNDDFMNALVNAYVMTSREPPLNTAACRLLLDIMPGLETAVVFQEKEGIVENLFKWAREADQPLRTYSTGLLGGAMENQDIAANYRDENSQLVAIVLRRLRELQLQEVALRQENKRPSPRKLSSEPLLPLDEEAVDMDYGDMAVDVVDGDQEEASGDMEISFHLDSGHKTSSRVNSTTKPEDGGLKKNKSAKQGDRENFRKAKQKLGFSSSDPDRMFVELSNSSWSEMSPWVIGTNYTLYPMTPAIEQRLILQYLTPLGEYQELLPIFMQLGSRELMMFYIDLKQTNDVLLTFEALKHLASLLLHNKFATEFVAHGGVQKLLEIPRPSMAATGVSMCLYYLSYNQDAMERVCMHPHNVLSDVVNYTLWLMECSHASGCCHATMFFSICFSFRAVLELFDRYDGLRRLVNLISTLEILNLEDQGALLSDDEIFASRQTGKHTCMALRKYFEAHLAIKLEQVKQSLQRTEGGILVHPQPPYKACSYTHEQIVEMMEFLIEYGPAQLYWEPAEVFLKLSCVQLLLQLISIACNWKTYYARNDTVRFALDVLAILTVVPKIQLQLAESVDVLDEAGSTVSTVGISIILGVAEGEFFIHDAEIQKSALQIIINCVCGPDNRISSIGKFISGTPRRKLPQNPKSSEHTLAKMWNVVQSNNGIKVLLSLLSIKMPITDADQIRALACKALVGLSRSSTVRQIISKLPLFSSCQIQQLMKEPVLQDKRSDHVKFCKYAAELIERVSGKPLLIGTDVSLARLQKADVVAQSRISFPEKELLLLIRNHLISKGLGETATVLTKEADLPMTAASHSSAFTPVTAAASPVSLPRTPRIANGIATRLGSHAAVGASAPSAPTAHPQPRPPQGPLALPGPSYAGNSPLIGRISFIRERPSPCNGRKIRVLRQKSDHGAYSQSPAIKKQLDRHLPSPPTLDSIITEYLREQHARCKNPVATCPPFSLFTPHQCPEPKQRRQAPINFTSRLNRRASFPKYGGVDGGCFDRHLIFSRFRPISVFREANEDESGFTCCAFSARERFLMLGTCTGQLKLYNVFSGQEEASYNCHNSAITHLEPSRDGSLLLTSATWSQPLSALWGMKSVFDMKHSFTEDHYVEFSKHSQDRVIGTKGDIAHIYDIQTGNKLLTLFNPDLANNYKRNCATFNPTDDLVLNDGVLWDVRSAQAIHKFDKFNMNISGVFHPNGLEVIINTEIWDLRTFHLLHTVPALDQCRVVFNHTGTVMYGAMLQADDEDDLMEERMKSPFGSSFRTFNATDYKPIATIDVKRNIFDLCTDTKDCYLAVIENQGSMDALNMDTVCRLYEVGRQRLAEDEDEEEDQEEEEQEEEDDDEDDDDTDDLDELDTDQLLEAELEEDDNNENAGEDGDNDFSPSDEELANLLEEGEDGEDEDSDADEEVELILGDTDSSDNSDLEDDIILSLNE
WDR5: WD repeat-containing protein 5 (WDR5, Homo sapiens, UniProt P61964)
target	setting	SYPRO Orange fluorescence
DCAF1	82.61 °C	38000 a.u.
DCAF1	85.41 °C	35500 a.u.
DCAF1	63.41 °C	54100 a.u.
WDR5	81.61 °C	65700 a.u.
WDR5	53.41 °C	16600 a.u.
WDR5	64.61 °C	16000 a.u.
DCAF1	65.81 °C	52900 a.u.
WDR5	88.61 °C	57000 a.u.
DCAF1	40 °C	11400 a.u.
WDR5	58.41 °C	15700 a.u.
DCAF1	37.8 °C	11000 a.u.

Series 2 — observed: enzyme activity; mode: inhibitor; method: Ub-TR-FRET; matrix: HECT domain; tested at: 0.04572 µM; reading: higher = more chain formation
Target: E3 ubiquitin-protein ligase NEDD4, HECT domain (Homo sapiens, UniProt P46934)
Residues (P46934 938-1319, limits assumed): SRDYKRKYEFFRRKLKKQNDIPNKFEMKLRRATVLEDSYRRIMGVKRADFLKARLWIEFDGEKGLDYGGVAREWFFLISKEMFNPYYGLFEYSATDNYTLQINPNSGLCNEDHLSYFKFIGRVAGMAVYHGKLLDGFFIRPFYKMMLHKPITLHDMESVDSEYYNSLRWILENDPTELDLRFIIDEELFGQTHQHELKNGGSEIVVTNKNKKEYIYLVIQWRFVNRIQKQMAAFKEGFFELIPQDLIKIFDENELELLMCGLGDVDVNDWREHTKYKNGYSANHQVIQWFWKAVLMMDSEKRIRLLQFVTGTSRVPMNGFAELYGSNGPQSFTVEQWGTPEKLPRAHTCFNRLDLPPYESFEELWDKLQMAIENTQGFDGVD
Structure (SMILES)	ubiquitin chain formation AUC
CN(C)C/C=C/C(=O)NCCCN1c2ccccc2CCc2ccc(Cl)cc21	132000 a.u. and 133000 a.u. and 131000 a.u.
COC(=O)CCCNCCCN1c2ccccc2CCc2ccc(Cl)cc21.COC(=O)CCCNCCCN1c2ccccc2CCc2ccc(Cl)cc21.O=C(O)/C=C/C(=O)O	133000 a.u. and 131000 a.u.
CCOC(=O)/C=C/CNCCCCN1c2cc(Cl)ccc2CCc2cnn(C)c21.O=C(O)/C=C\C(=O)O	51800 a.u. and 67200 a.u. and 54700 a.u. and 65300 a.u. and 67900 a.u. and 65000 a.u.
CCOC(=O)/C=C/CNCCCCN1c2ccccc2COc2ccc(Cl)cc21.O=C(O)/C=C\C(=O)O	91800 a.u. and 82600 a.u. and 90300 a.u.
Cl.NC(=O)/C=C/CNCCCN1c2ccccc2CCc2ccc(Cl)cc21	141000 a.u. and 140000 a.u.

Series 3 — cell line: U-87 MG; tested at: concentration not given; baseline: DMSO
SMILES: CCN1/C(=C/C=C2\CCCC(/C=C/C3=[N+](CC)c4ccccc4C3(C)C)=C2NCCCCCCCCN2CCC(Nc3nc4ccccc4n3Cc3ccc(F)cc3)CC2)C(C)(C)c2ccccc21
assay	log2 fold change
measured: MXI1 mRNA	0.884
measured: SERAC1 mRNA	1.19
measured: HMGN2 mRNA	-1.13
measured: RMI2 mRNA	-1.95
measured: ATG4B mRNA	0.829
measured: RNF26 mRNA	-1.28
measured: SLC16A6 mRNA	1.56
measured: OLIG2 mRNA	2.23
measured: NDST1 mRNA	-1.58
measured: SLC26A4 mRNA	-1.83
measured: PASK mRNA	-1.44
measured: PPP3CC mRNA	0.807
measured: SPDL1 mRNA	-1.36
measured: SEPHS2 mRNA	1.23
measured: RHBDL3 mRNA	-1.55
measured: FANCG mRNA	-1.29

Series 4
Compound: Cc1ccc(O)c(C)c1-c1cnc2[nH]c(-c3cnc(N4CCC5(CC4)CC(N4CCN(c6ccc(NC7CCC(=O)NC7=O)cc6F)CC4)CO5)nc3)cc2c1C#N (centres unmarked)
Target: Membrane-associated tyrosine- and threonine-specific cdc2-inhibitory kinase (PKMYT1, Homo sapiens, UniProt Q99640)
Construct (Q99640 1-499): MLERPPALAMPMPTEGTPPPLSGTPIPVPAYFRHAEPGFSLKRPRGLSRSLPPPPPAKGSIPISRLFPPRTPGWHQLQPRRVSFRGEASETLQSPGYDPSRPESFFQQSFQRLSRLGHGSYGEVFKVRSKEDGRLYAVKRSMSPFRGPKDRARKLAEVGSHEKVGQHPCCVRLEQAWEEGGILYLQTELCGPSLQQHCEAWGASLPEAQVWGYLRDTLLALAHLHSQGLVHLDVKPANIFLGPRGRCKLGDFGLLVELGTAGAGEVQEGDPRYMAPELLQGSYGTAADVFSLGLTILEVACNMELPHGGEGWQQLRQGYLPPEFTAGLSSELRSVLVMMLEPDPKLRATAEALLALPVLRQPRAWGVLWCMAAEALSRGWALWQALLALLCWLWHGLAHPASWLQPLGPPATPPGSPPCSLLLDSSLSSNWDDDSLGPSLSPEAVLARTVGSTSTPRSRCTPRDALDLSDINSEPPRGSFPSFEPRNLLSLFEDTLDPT
system	setting	degradation
MDA-MB-157	111.11 nM	66.6%
HCC1599	1.37 nM	61.6%
HCC1599	0.05 nM	19.3%
MDA-MB-157	0.05 nM	-1.1%
MDA-MB-157	0.15 nM	12.3%
MDA-MB-157	37.04 nM	75.7%

Series 5 — observed: kinase activity
SMILES: CNc1ncc2cc(-c3cc(OC)cc(OC)c3Cl)c(=O)n(CCc3ccc(NC(=O)C(C#N)=CC(C)(C)N4CCOCC4)cc3)c2n1
target	setting	inhibition
DYRK4 (Homo sapiens, UniProt Q9NR20)	1 µM	-2%
IGF1R (Homo sapiens, UniProt P08069)	1 µM	-9%
Aurora kinase A (AURKA, Homo sapiens, UniProt O14965)	1 µM	2%
MAPK1 (Homo sapiens, UniProt P28482)	1 µM	-1%
PDGFRA (Homo sapiens, UniProt P16234)	1 µM	58%
IRAK4 (Homo sapiens, UniProt Q9NWZ3)	1 µM	0%
MAP4K4 (Homo sapiens, UniProt O95819)	1 µM	-4%
SGK3 (Homo sapiens, UniProt Q96BR1)	0.1 µM	-2%
MAPK12 (Homo sapiens, UniProt P53778)	0.1 µM	-3%
EPHB3 (Homo sapiens, UniProt P54753)	1 µM	0%
PKN1 (Homo sapiens, UniProt Q16512)	1 µM	0%
RPS6KA2 (Homo sapiens, UniProt Q15349)	0.1 µM	-3%
HIPK4 (Homo sapiens, UniProt Q8NE63)	1 µM	14%
Tyrosine-protein kinase Lyn, isoform B (LYN, Homo sapiens, UniProt P07948)	0.1 µM	1%
BLK (Homo sapiens, UniProt P51451)	1 µM	-2%
PAK6 (Homo sapiens, UniProt Q9NQU5)	1 µM	-2%

Series 6 — cell line: Gaucher fibroblasts L444P/L444P; method: 4-MUG hydrolysis, cell lysate; tested at: 0.1 µM; baseline: DMSO
SMILES	GCase activity
Ic1cccc(Nc2nc(NCCN3CCOCC3)nc(N3CCOCC3)n2)c1	100% and 98.8% and 104% and 105% and 96.5% and 95.5%
Ic1ccc(Nc2nc(NCCN3CCOCC3)nc(N3CCNCC3)n2)cc1	101% and 94.9% and 94.4% and 97.8% and 96.8%
Ic1ccc(Nc2nc(NCCN3CCOCC3)nc(N3CCCCC3)n2)cc1	106% and 103% and 93.3% and 105% and 96.1% and 100%
Cc1ccc(Nc2nc(NCCN3CCOCC3)nc(N3CCOCC3)n2)cc1	96.7% and 93.8% and 108% and 105% and 104%
CCOc1ccc2nc(Sc3nc(Nc4ccc(OC)cc4)nc(N4CCOCC4)n3)sc2c1	114% and 115% and 104% and 109%
Ic1ccc(Nc2nc(N3CCOCC3)nc(N3CCOCC3)n2)cc1	103% and 102% and 141% and 106%
c1ccc(Nc2nc(NCCN3CCOCC3)nc(N3CCOCC3)n2)cc1	103% and 93.2% and 101% and 92.8% and 91.8% and 91.6%

Series 7
SMILES: CCN1C(=O)C(O)(C(=O)O)Oc2cc(F)ccc21 (centres unmarked)
organism	assay	system	setting	how to read	inhibition
Arabidopsis thaliana	root length	Col-0	25.0 µg/mL, 7 days, seed germination, dark	–	36.4%
Arabidopsis thaliana	root length	Col-0, seedlings	12.5 µg/mL	baseline: water control	29.7%
Arabidopsis thaliana	hypocotyl length	Col-0	50.0 µg/mL, 7 days, seed germination, dark	–	32.4%
Setaria viridis	fresh weight	–	150 g ai/ha, pre-emergence treatment	–	33.1% and 34.6% and 29.2%
Arabidopsis thaliana	root length	Col-0, seedlings	100 µg/mL	baseline: water control	72.4%
Arabidopsis thaliana	root length	Col-0, seedlings	3.125 µg/mL	baseline: water control	10.8%
Arabidopsis thaliana	hypocotyl length	Col-0	6.25 µg/mL, 7 days, seed germination, dark	–	15.3%
Abutilon theophrasti	fresh weight	–	150 g ai/ha, pre-emergence treatment	–	13.7% and 12.5%
Echinochloa crus-galli	fresh weight	–	150 g ai/ha, post-emergence treatment	–	51.3% and 47.7% and 49.1%
Arabidopsis thaliana	root length	Col-0, seedlings	6.25 µg/mL	–	17%
Arabidopsis thaliana	root length	Col-0	50.0 µg/mL, 7 days, seed germination, dark	–	42.6%
Arabidopsis thaliana	root length	Col-0	100 µg/mL, 7 days, seed germination, dark	–	72.4%
Arabidopsis thaliana	root length	Col-0, seedlings	12.5 µg/mL	–	29.7%
Arabidopsis thaliana	root length	Col-0	12.5 µg/mL, 7 days, seed germination, dark	–	29.7%

Series 8 — time: 6 days
SMILES: Cc1ncsc1-c1ccc(C(CO)NC(=O)C2CC(O)CN2C(=O)C(C(C)C)n2cc(-c3ccc(COc4c(-c5c(C)c(F)cc6[nH]ncc56)c(C5CC5)cc5c(N6CC7CC6CN7)nc(OC6CCOCC6)nc45)cc3)nn2)cc1 (centres unmarked)
cell line	assay	setting	how to read	viability
BXPC-3	cell growth or viability, ATP luminescence	1 µM	–	140% and 80.2% and 90.5% and 88.6%
GP5d	cell growth or viability, ATP luminescence	1 µM	–	29.5% and 36.7% and 34.2% and 29.6%
PSN1	cell growth or viability, ATP luminescence	10 nM	–	90% and 83.8% and 85.3% and 97%
AsPC-1	CellTiter-Glo	1 µM	baseline: DMSO	4.28% and 5.68% and 4.3%
NCI-H358	cell growth or viability, ATP luminescence	30 nM	–	106% and 86.8% and 90.7% and 91.2%
A-375	cell growth or viability, ATP luminescence	10 nM	–	83.1% and 85.9% and 90.8% and 88.6%

Further values, each from its own experiment
SMILES	target or system	assay	system	setting	how to read	quantity	result
CS(=O)(=O)c1ccc(OC/C(=C/F)CN)cc1	Amine oxidase [copper-containing] 3 (Mus musculus, UniProt O70423)	enzyme activity	mouse adipose tissue	–	–	IC50	3 nM
CCn1cnc2c(NCc3nc4ccc(F)c(F)c4[nH]3)nc(N3CCn4ncnc4C3)nc21	MDA-MB-231	cell growth or viability	–	5 days	–	EC50	96.3 nM
NC/C(=C\F)COc1cc(Cn2c(=S)[nH]c(=O)c3[nH]ccc32)ccc1Cl	Myeloperoxidase (MPO, Homo sapiens, UniProt P05164)	enzyme activity	–	0.1235 µM	–	inhibition	96.6% and 96.5%
C=C(CN)COc1cccc(Cn2c(=S)[nH]c(=O)c3[nH]cnc32)c1	AOC3 (Homo sapiens, UniProt Q16853)	dilution jump	–	concentration not given	baseline: DMSO control	remaining activity	79.1% and 79.4% and 80.7%
NC/C(=C\F)COc1cccc(Cn2c(=S)[nH]c(=O)c3[nH]cnc32)c1	–	–	human hepatocytes	60 min	–	remaining compound	85.5% and 74.1% and 69.7% and 72.3%

A few entries again (series 7):
organism	assay	system	setting	how to read	inhibition
Abutilon theophrasti	fresh weight	–	150 g ai/ha, pre-emergence treatment	–	13.7% and 12.5%
Echinochloa crus-galli	fresh weight	–	150 g ai/ha, post-emergence treatment	–	51.3% and 47.7% and 49.1%
Arabidopsis thaliana	root length	Col-0, seedlings	6.25 µg/mL	–	17%
Arabidopsis thaliana	root length	Col-0	50.0 µg/mL, 7 days, seed germination, dark	–	42.6%
Arabidopsis thaliana	root length	Col-0	100 µg/mL, 7 days, seed germination, dark	–	72.4%
Arabidopsis thaliana	root length	Col-0, seedlings	12.5 µg/mL	–	29.7%
